{"data": "Results gathered from unrelated publications", "target": "Tyrosine-protein kinase ABL2 (ABL2, Homo sapiens, UniProt P42684)", "note": "Several values in a cell are separate wells, animals, samples, runs or records."}
{"SMILES": "COc1cc(Nc2nc(C)cc(-c3cnn4nc(OC)ccc34)n2)cc(C(F)(F)F)c1", "assay": "inhibitor", "setting": "1 µM", "scale": "baseline: control", "quantity": "remaining activity", "value": "76%"}
{"SMILES": "O=C(Cc1ccc(OCc2ccccc2)cc1)NC1(C(=O)O)CCN(C(=O)c2ccc(-c3cccc(Cl)c3)cc2)CC1", "assay": "enzyme activity, inhibitor", "setting": "10 µM", "quantity": "activity vs control", "value": "131%"}
{"SMILES": "C=CC(=O)N1Cc2nc(-c3cc(-c4cc(Cl)cnc4Cl)c(F)cc3F)n(-c3ccncn3)c2C1", "assay": "cell-free assay, inhibitor", "setting": "1 µM", "quantity": "inhibition", "value": "10.2%"}
{"SMILES": "C=CC(=O)Nc1cccc(-c2cnc3[nH]cc(C(=O)NC(C)(C)C)c3n2)c1", "assay": "kinase activity", "setting": "0.1 µM", "quantity": "inhibition", "value": "10% and 11%"}
{"SMILES": "O=C=[N][Ru-4]123([n]4c5ccc(O)cc5c5c6c(c7cc(F)c[n+]1c7c54)C(=O)NC6=O)[S+]1CC[S+]2CC[S+]3CC1 (stereo not shown)", "assay": "enzyme activity", "setting": "100 nM, human enzyme, added: 10 µM ATP", "scale": "baseline: untreated", "quantity": "remaining activity", "value": "93%"}
{"SMILES": "CN1CCN(Cc2ccc(-c3ccc(CO[C@H]4CCC[C@@H]4NC(=O)c4cc(-c5cnn(C)c5)cnc4N)cc3)cc2)CC1", "assay": "enzyme activity, inhibitor", "setting": "0.1 µM", "quantity": "inhibition", "value": "2%"}
{"SMILES": "O=C(Nc1ccc(Oc2ncnc3[nH]cc(-c4ccccc4)c23)c(F)c1)c1c2n(n(-c3cc(F)ccc3F)c1=O)CCCC2", "assay": "enzyme activity, inhibitor", "setting": "0.5 µM", "quantity": "inhibition", "value": "10%"}
{"SMILES": "COc1c(Cl)cccc1Nc1c(-c2ccncc2C#C[C@@]2(C)CCCN2C(=O)/C=C/CN(C)C)[nH]c2c1C(=O)NCC2", "assay": "binding, competition with immobilised ligand", "setting": "3 µM", "quantity": "remaining binding", "value": "82%"}
{"SMILES": "NC(=O)C[C@H]1CCc2sc3ncnc(O[C@H]4CC[C@H](N5CCOCC5)CC4)c3c21", "assay": "enzyme activity, inhibitor", "setting": "10 µM", "quantity": "inhibition", "value": "5%"}
{"SMILES": "Cc1ccc(C(=O)Nc2cccc(C(F)(F)F)c2)cc1Nc1cncc(C(N)=O)c1", "assay": "binding, competition with immobilised ligand", "setting": "1 µM", "quantity": "remaining binding", "value": "21%"}
{"SMILES": "CC(C)=CC1OC(C)(C)C2C=C3C(=O)C(Cl)=CC(O)C3C3C(O)C4OC4C(=O)C132 (stereo not shown)", "assay": "cell-free assay, competition with immobilised ligand", "setting": "10 µM", "quantity": "remaining binding", "value": "91%"}
{"SMILES": "Nc1ncc2c(n1)-c1c([nH]c3ccc(C4=CCOCC4)cc13)CCC2", "assay": "binding, competition with immobilised ligand", "setting": "1 µM", "quantity": "remaining binding", "value": "93%"}
{"SMILES": "CCN1CCN(Cc2ccc(C(=O)Nc3ccc(C)c(NCc4cnc5[nH]ccc5c4OC)c3)cc2C(F)(F)F)CC1", "assay": "binding, competition with immobilised ligand", "setting": "1 µM", "quantity": "remaining binding", "value": "0.55%"}
{"SMILES": "Cc1cccc(O[C@H]2CCC[C@@H](C(C)CNCc3ccncc3)C2)c1 (relative stereo)", "assay": "enzyme activity, inhibitor", "setting": "10 µM", "quantity": "inhibition", "value": "-8%"}
{"SMILES": "C=CC(=O)N1CCc2ccc(-n3c(=O)ccc4cnc5ccc(-c6cnn(C)c6)cc5c43)cc21", "assay": "KINOMEscan", "setting": "1 µM", "scale": "baseline: DMSO control", "quantity": "remaining binding", "value": "100%"}
{"SMILES": "CCn1cc(C(=O)O)c(=O)c2c(N)c(F)c(NC3CCCCC3)cc21", "assay": "kinase activity", "setting": "0.1 µM, added: ATP at Km", "quantity": "inhibition", "value": "-29.9%"}
{"note": "For quick reference, copied from above:"}
{"SMILES": "O=C(Nc1ccc(Oc2ncnc3[nH]cc(-c4ccccc4)c23)c(F)c1)c1c2n(n(-c3cc(F)ccc3F)c1=O)CCCC2", "assay": "enzyme activity, inhibitor", "setting": "0.5 µM", "quantity": "inhibition", "value": "10%"}
